Assay results pooled from the literature.
Numbered parts are unrelated; each lists some results of a single study. Positions count from the first letter of the parent shown.

Block 1 — technique: DHFR PCA, deep sequencing; medium: yeast; together with: (+)-ABA 17 µM; baseline: wild-type fitted maximum; reading: higher = stronger binding; measurement: relative binding score
Target: ABI1, truncated, D143A, DHFR fusion (Arabidopsis thaliana)
Notes: methotrexate growth selection, single substitutions
Parent: PYL1, truncated, DHFR fusion (Arabidopsis thaliana); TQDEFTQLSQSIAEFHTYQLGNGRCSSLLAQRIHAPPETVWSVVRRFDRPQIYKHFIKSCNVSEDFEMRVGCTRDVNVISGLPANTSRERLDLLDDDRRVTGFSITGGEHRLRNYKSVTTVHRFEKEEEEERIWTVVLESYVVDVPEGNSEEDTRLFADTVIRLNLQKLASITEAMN
Q51M: 47.4%
V136A: 34.6%
S63D: 91.7%
E152Y: 71.2%
S140P: 3.8%
S9W: 67.3%
R69Q: 85.8%
E64H: 84.8%
F124A: 79.6%
D48F: 12%
R49W: 9.99%
H122L: 11.7%
L166R: 0.712%
I133T: 93%
W134A: 82.5%
G108A: -0.245%
H34W: 66.1%
N77D: 79.8%
D3H: 74.7%

Block 2 — target: UBE2L6 UBC core domain (UniProt O14933); technique: yeast two-hybrid; medium: yeast; notes: mostly zero background; baseline: not given; reading: higher = stronger interaction; measurement: lacZ reporter activity
B1: ZMYND11 RING domain (UniProt Q15326); chain DEIDWETENHDWYCFECHLPGEVLICDLCFRVYHSKCLSDEFRLRDSSSPWQCPVCRSIKKKNTNKQEM
B2: RUFY1 RING domain (UniProt Q96T51); chain QALKGHAWLKDDEATHCRQCEKEFSISRRKHHCRNCGHIFCNTCSSNELALPSYPKPVRVCDSCHTLLLQRCSSTAS
B3: RNF6 RING domain (UniProt Q9Y252); chain NSIDSELGKICSVCISDYVTGNKLRQLPCMHEFHIHCIDRWLSENCTCPICRQPVLGSNIAN
Construct (chain): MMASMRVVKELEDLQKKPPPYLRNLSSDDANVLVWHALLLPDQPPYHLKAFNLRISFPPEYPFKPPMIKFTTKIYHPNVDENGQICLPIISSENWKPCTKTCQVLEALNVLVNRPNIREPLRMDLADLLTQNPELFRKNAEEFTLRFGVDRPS
ASEEEFQFLRCQQCQAEAKCPKLLPCLHTLCSGCLEASGMQCPICQAPWPLGADTP (PML RING domain (UniProt P29590)): 0
B1 (ZMYND11 RING domain): 0
ASPKIFQKTKCSICNSALELPSVHFLCGHSFHQHCFESYSESDADCPTCLPENRKVMDMI (VPS11 RING domain (UniProt Q9H270)): 0
B2 (RUFY1 RING domain): 0
B3 (RNF6 RING domain): 0
FDPPLESKYECPICLMALREAVQTPCGHRFCKACIIKSIRDAGHKCPVDNEILLENQLFP (TRAF6 RING domain (UniProt Q9Y4K3)): 0

Block 3 — technique: RNA Bind-n-Seq; molecule type: RNA; medium: in vitro; concentration: not given; baseline: input RNA pool; reading: higher = stronger binding; measurement: bound/input enrichment
Target: RING finger protein unkempt homolog, zinc fingers 1-6, GST-SBP tag (UNK, Homo sapiens, UniProt Q9C0B0, residues 30-357)
Sequence of UniProt Q9C0B0 (30-357, looked up): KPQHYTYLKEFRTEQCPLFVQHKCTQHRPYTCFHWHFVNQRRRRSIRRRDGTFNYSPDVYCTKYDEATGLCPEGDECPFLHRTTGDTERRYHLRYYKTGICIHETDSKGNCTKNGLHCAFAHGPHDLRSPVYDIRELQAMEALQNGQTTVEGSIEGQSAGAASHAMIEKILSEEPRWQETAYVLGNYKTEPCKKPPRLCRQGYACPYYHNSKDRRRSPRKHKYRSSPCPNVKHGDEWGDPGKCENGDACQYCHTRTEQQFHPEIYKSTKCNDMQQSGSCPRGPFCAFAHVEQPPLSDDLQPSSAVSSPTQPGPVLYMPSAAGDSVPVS
Notes: RNA with constant flanks, human-mouse chimeric sites, ends assumed
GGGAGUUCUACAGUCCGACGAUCUUAAUCCCCUUCGUUGCUCCCCCACUUGUCAUGCUGAUAACAAAGUCUUAUAUCCCCGUCCUAGCUUUCACUCAGAUGGCUUAUGGAGCCGGUUUCCUAGCUUUCUUGGGAGGGAUCAGACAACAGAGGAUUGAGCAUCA: 0.293 ratio
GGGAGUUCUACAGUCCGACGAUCUAAGUCCUGUGCCAGCAAUUUAUCCCAAAAGUUUUAAAUUCAAGAAAAAUAGUGUUUGUUUCCUGAUUAUUGUAUCCAAUACUUUGCCUAGUAUGUAACUCACUCUUACUGAUAAUAAAACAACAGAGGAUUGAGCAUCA: 12.4 ratio
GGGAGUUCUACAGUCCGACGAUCGACUUUGGGACUGGUCCUCGCAACGCAGCCUUCUAUAGCCCUCAUGGACAUAUAUUAGUGCUGGCUGGAUUUGGAAAUCUGAGGGGACAAAUGGAAGUAUGGGAUGUGAAAAACUACAAGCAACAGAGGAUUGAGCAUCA: 0.457 ratio
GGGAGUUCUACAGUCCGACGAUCUUCCCAACCUCCCGCCUCACCCCACCCCCGCUUUUUGGAAAGUUUUUGGCGUUUCUUUUCCUUCCCCAUACAAAGUGAUUACAGUUUCCCCCGCAAGGGUCUAUCGAAGGGCUUGACGGACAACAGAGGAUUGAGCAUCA: 0.564 ratio
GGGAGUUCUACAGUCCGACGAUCAGAGCCCAGGACGUUGAUGCUACAAAUCCAAAUUACGAAAUUAUGUGUAUGAUCAGAGACUUCAGAGGGAGCUUGGAUUACAGACCCCUAACAACAGCAGAUCCUAUUGAUGAACAUAGGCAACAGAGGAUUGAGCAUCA: 0.326 ratio
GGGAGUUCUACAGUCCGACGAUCGAUAAGAAAAACUUGUUGGAGACCCGCUUGCAUGUCACUGGUAGAGAACUGAGGUCCCAAAUAGCUGAAACUUUCGGAUUUCAAGAAAAUUACAUCAAGAUCGUAAUAAAUAAGAAACAGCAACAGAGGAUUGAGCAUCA: 0.659 ratio

Block 4 — technique: RNA Bind-n-Seq; molecule type: RNA; medium: in vitro; concentration: 365 nM; baseline: no-protein control; reading: higher = stronger binding; measurement: RBNS enrichment (R)
Target: RNA binding protein fox-1 homolog 2, RRM domain, GST-SBP tag (RBFOX2, Homo sapiens, UniProt O43251-10, residues 100-194)
Notes: natural RNA segment, single round, ends assumed
Target sequence (chain): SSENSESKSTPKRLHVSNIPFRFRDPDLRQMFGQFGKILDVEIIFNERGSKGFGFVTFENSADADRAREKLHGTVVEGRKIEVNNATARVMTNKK
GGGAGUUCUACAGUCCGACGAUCCUGUGAGAGCGGGAUGGGGACGACAUGAAUCACAGCUUUGCUGUGAGCUUUCUCUCGUGCAGUUUCAUCAGAGGUUUGGGAGGAGGGCAAGUGGCCGCUAGAGAAGAAUAUGGAAUUCUCGGGUGCCAA: 0.546
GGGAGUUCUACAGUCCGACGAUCCACAAUGAAUUUUACUUGAAUAUUGUAUGUUGCAUUCCACUUCAUUUGAAAAUAAUGAAACCAUGUACCACUGUUUACAUCAUCUGUAGUGAUUUCAUAGAUAAUAUAUUUGGAAUUCUCGGGUGCCAA: 0.512
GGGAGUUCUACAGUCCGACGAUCCUCUUAGUCUUUAAGUUCAAAGACUAACCUGUAGCAAUCAGACUUUCCAAAAGGGGGUUCUCCAUUUUUUGUAGUUUUGUCUAAAUUUUUAAUGACCAUUUCCUGGAAUCUGGAAUUCUCGGGUGCCAA: 1.03
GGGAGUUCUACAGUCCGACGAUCAAGGCGGUUUGGCCAGGCUUACUGCAGGCAUCCGACUGUAGAGAUCGCCACAGUCUCUGGGGCUCCAGGGCUGCGCUGUAACUGAGCUUCAUCCAGAAUGAGCAAAACACUGGAAUUCUCGGGUGCCAA: 0.361
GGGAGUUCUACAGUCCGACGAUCUUAGCAGUUUUAUGCUGGCGAUAAUUUAUCUACGUGCAUUGCAAUAAACAUUUCGUUUCCUAAGAUGAGACAUUCCGUGGCUUUUUUGAAAACCCUUGGAAAAGCAUUGCUGGAAUUCUCGGGUGCCAA: 0.571
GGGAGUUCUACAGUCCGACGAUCUCUAUAUGCCCCUUAAUAGACUGUGGUUCCUGACGCACACUGUUAGGUCAUUAUUUUGUUGUACCAAAGUUCUAGUGGCUUCAGAAAUCAUAGCAUCCAAUGAUUUUUUGUGGAAUUCUCGGGUGCCAA: 0.581
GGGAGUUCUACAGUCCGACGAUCCUCAGAUCACUAAAAGGAGCAUCAGUGGCCCAAUUCCUCUUACUUUGGGACACACUGUCCACACUCCACCAAGAGCUACACAGAUUCCCACAUAAAGAUAGUGCCCUAAGUGGAAUUCUCGGGUGCCAA: 0.284
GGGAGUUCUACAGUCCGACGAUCAAAAGUAAACAAAAUUAAGUUAUUAUUCCACUGUUAGGAAUGGAAAUAAACUUGUGAAGUCUGUUUAUUUUGAAGUAUUGGUGAACUAGGCUUGCUAAUUGAUAACUGCAUGGAAUUCUCGGGUGCCAA: 3.1

Block 5 — target: CCNA1, cyclin fold, Cln2 fusion (human); technique: yeast growth competition, sequencing; medium: yeast; notes: weak parent motif; baseline: not given; reading: higher = stronger binding; measurement: normalised enrichment score
Parent: RB1 docking peptide (human); PKPLKKLRFDIEG; partner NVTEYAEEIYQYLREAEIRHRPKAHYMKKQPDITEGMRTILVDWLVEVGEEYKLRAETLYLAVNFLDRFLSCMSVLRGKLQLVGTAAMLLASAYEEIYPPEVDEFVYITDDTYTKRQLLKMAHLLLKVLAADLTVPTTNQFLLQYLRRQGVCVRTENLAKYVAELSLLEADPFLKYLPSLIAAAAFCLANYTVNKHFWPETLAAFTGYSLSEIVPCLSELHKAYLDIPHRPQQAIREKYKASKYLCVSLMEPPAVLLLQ
PKPLKKLRFDIKG [E12K]: -0.13
PKPLKKLRFDING [E12N]: 0.196
PKPLKKLRFDCEG [I11C]: 0.347
PKCLKKLRFDIEG [P3C]: 0.652
PKPLKKLRFDWEG [I11W]: 0.104
PKPVKKLRFDIEG [L4V]: 0.216
PKPLKCLRFDIEG [K6C]: 0.187
PKPLKKLRFDIER [G13R]: 0.571
PKPLKKLRFSIEG [D10S]: -0.326
PKPLKKLRADIEG [F9A]: 0.436
PKPLKKTRFDIEG [L7T]: 0.282
PKPDKKLRFDIEG [L4D]: 0.692

Repeated from above (block 5):
PKPVKKLRFDIEG [L4V]: 0.216
PKPLKKLRFDCEG [I11C]: 0.347
PKPLKKLRFDIER [G13R]: 0.571
PKPLKKLRFDWEG [I11W]: 0.104
PKPLKKTRFDIEG [L7T]: 0.282
PKPLKKLRFDING [E12N]: 0.196
PKPLKKLRFSIEG [D10S]: -0.326
